Measurements collected from several papers.
Compare with care: the assays were run in different laboratories.
Technique: steady-state kinetics
B1: GTPBP3 P257H (Homo sapiens, UniProt Q969Y2); chain TRRSSGAPAPGSGATIFALSSGQGRCGIAVIRTSGPASGHALRILTAPRDLPLARHASLRLLSDPRSGEPLDRALVLWFPGPQSFTGEDCVEFHVHGGPAVVSGVLQALGSVPGLRPAEAGEFTRRAFANGKLNLTEVEGLADLIHAETEAQRRQALRQLDGELGHLCRGWAETLTKALAHVEAYIDFGEDDNLEEGVLEQADIEVRALQVALGAHLRDARRGQRLRSGVHVVVTGHPNAGKSSLVNLLSRKPVSIVSPEPGTTRDVLETPVDLAGFPVLLSDTAGLREGVGPVEQEGVRRARERLEQADLILAMLDASDLASPSSCNFLATVVASVGAQSPSDSSQRLLLVLNKSDLLSPEGPGPGPDLPPHLLLSCLTGEGLDGLLEALRKELAAVCGDPSTDPPLLTRARHQHHLQGCLDALGHYKQSKDLALAAEALRVARGHLTRLTGGGGTEEILDIIFQDFCVGK
B2: TenA_E (Arabidopsis thaliana, UniProt Q9ASY9); chain MEKRGVIDTWIDKHRSIYTAATRHAFVVSIRDGSVDLSSFRTWLGQDYLFVRRFVPFVASVLIRACKDSGESSDMEVVLGGIASLNDEIEWFKREGSKWDVDFSTVVPQRANQEYGRFLEDLMSSEVKYPVIMTAFWAIEAVYQESFAHCLEDGNKTPVELTGACHRWGNDGFKQYCSSVKNIAERCLENASGEVLGEAEDVLVRVLELEVAFWEMSRGGQ
B3: UCK2 (Homo sapiens, UniProt Q9BZX2); chain MAGDSEQTLQNHQQPNGGEPFLIGVSGGTASGKSSVCAKIVQLLGQNEVDYRQKQVVILSQDSFYRVLTSEQKAKALKGQFNFDHPDAFDNELILKTLKEITEGKTVQIPVYDFVSHSRKEETVTVYPADVVLFEGILAFYSQEVRDLFQMKLFVDTDADTRLSRRVLRDISERGRDLEQILSQYITFVKPAFEEFCLPTKKYADVIIPRGADNLVAINLIVQHIQDILNGGPSKRQTNGCLNGYTPSRKRQASESSSRPH
B4: enzyme I209A (Thermococcus kodakarensis, UniProt Q5JID5); chain MLYVEILGNLPEMARDEVKAMLELGGGEIIGQDYLFLKVDAGEKAFPFLDRLGLAHEYGLLLVEADSVEELLQKAGEVEWPIKGAFKVDTETMANCRHDVLDLPRKLGAVIHAQGFRVNLSKPDTVVRVYCGERLYAGIRLRYFDPKDFEKRKAHHRPFFRPISLHPRVSRALVNLTKATREILDPFMGAGGILIEAGLLGLRVYGVDARPEMVEGAETNLKHYGVRDYTLKLGDATRLEDLFPDKKFEAVATDPPYGTAATLAGRKRDELYRKALRSIYNVLEDGGRLAIAFPTDFNGKAEAEAVGFRTLGRYYQRVHKSLERYFYVFEK
B5: Rtr1 residues 1-213 (Saccharomyces cerevisiae, UniProt P40084); chain MATIEDIKETALIPFQKHRQLSMHEAEVITLEIIGLLCDSECKDEKTLKYLGRFLTPDMYQDLVDERNLNKRCGYPLCGKSPERIRDPFSMNDTTKKFLLENNPYAYLSHYCSKFHFRCSQFYQVQLSDEALFARTGVHLFEDPEQDKHDIDFKVTLFEELLREKASEEDIKSLISGLKKLGLNPDSGTTEKDDTELEDDLSKWLAQIKIVEN
B6: enzyme (Thermus thermophilus, UniProt Q72J81); chain MEVKRIGVVGAGQMGSGIAQVAASAGYEVVLVDVAESFLERGLAAIRRSLGKFLEKGKITQEAHDEALGRIRTSLSLEDLKDADLIVEAIVEDEGEKRRLFERLGALAKPEAILASNTSSIPITALARYSGRPERFIGMHFFNPVPLMQLVEVIRGELTSEATRDVVVEVARRMGKTPLEVQDYPGFISNRLLMPMINEAIEALREGVATKEAIDGIMRLGMNHPMGPLELADFIGLDTCLAIMEVLHRGFGDDKYRPSPLLRRMVQAGLLGRKAGRGFYTYDEKGNKVG
B7: YdjH (Escherichia coli, UniProt P77493); chain MDNLDVICIGAAIVDIPLQPVSKNIFDVDSYPLERIAMTTGGDAINEATIISRLGHRTALMSRIGKDAAGQFILDHCRKENIDIQSLKQDVSIDTSINVGLVTEDGERTFVTNRNGSLWKLNIDDVDFARFSQAKLLSLASIFNSPLLDGKALTEIFTQAKARQMIICADMIKPRLNETLDDICEALSYVDYLFPNFAEAKLLTGKETLDEIADCFLACGVKTVVIKTGKDGCFIKRGDMTMKVPAVAGITAIDTIGAGDNFASGFIAALLEGKNLRECARFANATAAISVLSVGATTGVKNRKLVEQLLEEYEG
Chain of UniProt Q9H015 (whole entry, looked up): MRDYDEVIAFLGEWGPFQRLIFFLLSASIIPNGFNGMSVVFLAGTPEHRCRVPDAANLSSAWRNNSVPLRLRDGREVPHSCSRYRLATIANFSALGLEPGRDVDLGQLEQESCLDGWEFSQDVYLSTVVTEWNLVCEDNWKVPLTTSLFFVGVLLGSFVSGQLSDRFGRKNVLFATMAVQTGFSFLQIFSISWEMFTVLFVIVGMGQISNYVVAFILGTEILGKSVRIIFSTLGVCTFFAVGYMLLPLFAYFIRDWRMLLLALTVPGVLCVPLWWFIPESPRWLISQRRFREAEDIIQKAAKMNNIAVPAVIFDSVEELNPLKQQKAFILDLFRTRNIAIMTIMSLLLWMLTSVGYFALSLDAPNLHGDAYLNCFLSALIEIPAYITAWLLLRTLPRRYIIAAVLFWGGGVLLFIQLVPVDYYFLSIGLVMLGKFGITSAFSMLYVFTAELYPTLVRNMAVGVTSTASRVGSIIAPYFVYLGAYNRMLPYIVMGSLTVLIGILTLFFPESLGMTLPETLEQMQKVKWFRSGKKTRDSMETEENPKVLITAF
Chain of UniProt P30038 (whole entry, looked up): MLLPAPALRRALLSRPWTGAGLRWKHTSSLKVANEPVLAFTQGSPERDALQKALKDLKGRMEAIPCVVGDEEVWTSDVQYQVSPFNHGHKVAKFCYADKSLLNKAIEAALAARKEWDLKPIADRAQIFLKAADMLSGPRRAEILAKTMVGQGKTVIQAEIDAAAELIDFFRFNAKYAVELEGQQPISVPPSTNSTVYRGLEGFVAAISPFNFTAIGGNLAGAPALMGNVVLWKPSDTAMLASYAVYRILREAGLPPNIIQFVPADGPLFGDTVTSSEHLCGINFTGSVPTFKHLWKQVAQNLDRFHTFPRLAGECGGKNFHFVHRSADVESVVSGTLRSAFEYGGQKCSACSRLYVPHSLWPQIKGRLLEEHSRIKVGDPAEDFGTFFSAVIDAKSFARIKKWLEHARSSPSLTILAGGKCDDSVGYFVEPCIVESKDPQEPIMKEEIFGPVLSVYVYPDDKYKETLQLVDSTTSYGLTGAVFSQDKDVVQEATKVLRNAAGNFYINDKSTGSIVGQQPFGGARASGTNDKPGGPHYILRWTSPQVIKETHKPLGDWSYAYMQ
Chain of UniProt Q04049 (whole entry, looked up): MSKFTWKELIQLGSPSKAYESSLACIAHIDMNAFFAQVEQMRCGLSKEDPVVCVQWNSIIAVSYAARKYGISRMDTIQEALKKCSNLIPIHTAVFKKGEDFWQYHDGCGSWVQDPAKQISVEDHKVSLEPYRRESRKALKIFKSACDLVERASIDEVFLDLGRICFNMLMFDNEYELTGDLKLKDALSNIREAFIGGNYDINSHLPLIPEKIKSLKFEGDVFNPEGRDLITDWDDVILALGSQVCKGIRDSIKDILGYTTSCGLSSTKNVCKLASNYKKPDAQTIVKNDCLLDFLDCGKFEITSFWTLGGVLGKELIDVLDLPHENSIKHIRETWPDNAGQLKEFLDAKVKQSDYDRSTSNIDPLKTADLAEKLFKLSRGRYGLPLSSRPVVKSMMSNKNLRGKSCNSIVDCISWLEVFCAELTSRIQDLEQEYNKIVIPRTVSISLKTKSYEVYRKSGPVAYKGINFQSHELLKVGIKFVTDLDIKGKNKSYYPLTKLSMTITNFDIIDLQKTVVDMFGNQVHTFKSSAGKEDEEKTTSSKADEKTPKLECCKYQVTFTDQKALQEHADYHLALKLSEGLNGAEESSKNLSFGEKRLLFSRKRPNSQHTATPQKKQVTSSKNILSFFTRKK
Chain of UniProt P07914 (whole entry, looked up): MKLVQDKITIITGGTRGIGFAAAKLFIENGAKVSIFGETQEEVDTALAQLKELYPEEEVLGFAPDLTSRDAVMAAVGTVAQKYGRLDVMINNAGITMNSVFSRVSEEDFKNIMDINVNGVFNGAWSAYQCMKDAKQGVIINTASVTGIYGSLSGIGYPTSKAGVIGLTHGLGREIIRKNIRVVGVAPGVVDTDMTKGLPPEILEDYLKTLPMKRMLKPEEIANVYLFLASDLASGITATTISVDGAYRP

| Substance | substrate | conditions | Km [µM] |
| --- | --- | --- | --- |
| B1 (GTPBP3 P257H) | Nc1nc2c(ncn2[C@@H]2O[C@H](COP(=O)(O)OP(=O)(O)OP(=O)(O)O)[C@@H](O)[C@H]2O)c(=O)[nH]1 | pH 8, 37 °C, KCl 300 mM | 101 |
| B2 (TenA_E) | Cc1ncc(CN)c(N)n1 | pH 7.5, 30 °C, amino-HMP aminohydrolase activity, added: 450 mM glycine betaine | 1820 |
| enzyme (Pseudomonas aeruginosa, UniProt O84908) | C[C@H]1O[C@H](OP(=O)(O)OP(=O)(O)OC[C@H]2O[C@@H](n3cnc4c(=O)[nH]c(N)nc43)[C@H](O)[C@@H]2O)[C@@H](O)[C@@H](O)[C@@H]1O | pH 9, 37 °C, apparent, not purified | 145 |
| RAD30 (Saccharomyces cerevisiae, UniProt Q04049) | Cc1cn([C@H]2C[C@H](O)[C@@H](COP(=O)(O)OP(=O)(O)OP(=O)(O)O)O2)c(=O)[nH]c1=O | pH 7.5, room temperature, apparent Km, apparent, added: dG 10 nM primer-template | 18 |
| B3 (UCK2) | O=c1ccn([C@@H]2O[C@H](CO)[C@@H](O)[C@H]2O)c(=O)[nH]1 | pH 7.2, 25 °C, KCl 100 mM, added: ATP 100–200 µM | 58 |
| enzyme (Bifidobacterium adolescentis, UniProt A1A3M6) | O=[N+]([O-])c1ccc(O[C@H]2O[C@H](CO)[C@H](O)[C@H](O)[C@H]2O)cc1 | pH 5, 40 °C | 5960 |
| SLC22A4 (Homo sapiens, UniProt Q9H015) | Nc1ccn([C@@H]2O[C@H](CO)[C@@H](O)[C@@H]2O)c(=O)n1 | single saturable site, not purified | 1.95 |
| BaiA1 (Clostridium scindens, UniProt P07914) | C[C@H](CCC(=O)SCCNC(=O)CCNC(=O)[C@H](O)C(C)(C)COP(=O)(O)OP(=O)(O)OC[C@H]1O[C@@H](n2cnc3c(N)ncnc32)[C@H](O)[C@@H]1OP(=O)(O)O)[C@H]1CC[C@H]2[C@@H]3CC[C@@H]4CC(=O)CC[C@]4(C)[C@H]3C[C@H](O)[C@]12C | pH 8.7, 37 °C, added: NADH | 5.6 |
| B4 (enzyme I209A) | C[S+](CC[C@H](N)C(=O)O)C[C@H]1O[C@@H](n2cnc3c(N)ncnc32)[C@H](O)[C@@H]1O | pH 7.5, 50 °C, apparent | 23 |
| B5 (Rtr1 residues 1-213) | Cc1cc(=O)oc2c(F)c(OP(=O)(O)O)c(F)cc12 | pH 6, NaCl 150 mM, no metal added | 41.2 |
| B6 (enzyme) | NC(=O)c1ccc[n+]([C@@H]2O[C@H](COP(=O)(O)OP(=O)(O)OC[C@H]3O[C@@H](n4cnc5c(N)ncnc54)[C@H](O)[C@@H]3O)[C@@H](O)[C@H]2O)c1 | pH 7, 65 °C, cofactor varied | 186 |
| ALDH4A1 (Homo sapiens, UniProt P30038) | O=C(O)[C@@H]1CCC=N1 | pH 7, 20 °C, value for L-P5C, added: NAD+ | 32 |
| B7 (YdjH) | O=C(O)[C@H](O)[C@@H](O)[C@H](O)[C@H](O)CO | pH 7.4, 30 °C, KCl 100 mM, added: ATP 2.0 mM, MgCl2 5.0 mM | 18 |

Excerpt of the above:
| Substance | substrate | conditions | Km [µM] |
| --- | --- | --- | --- |
| ALDH4A1 (Homo sapiens, UniProt P30038) | O=C(O)[C@@H]1CCC=N1 | pH 7, 20 °C, value for L-P5C, added: NAD+ | 32 |
